Published values from different studies.
Lines come from different studies, so protocols differ. Several values in a cell are separate wells, animals, samples, runs or records. Numbers after ± are the reported error.

SMILES	target or system	test	test system	conditions	how to read	endpoint	value
Cc1ccc(N2CCC3(CC2)CN(C)C3)cc1C(=O)N[C@H](C)c1cc(-c2cnn(C)c2)nc2ccccc12	Vero E6			125 µM		viability	3.04% and 2.68% and 3.75%
O=C(c1cc(Cc2n[nH]c(=O)c3ccccc23)ccc1F)N1CC(CNC2CC2)C1			Wistar Han rat, female, blood	oral, 15 mg/kg daily, 4 weeks		haematocrit	45.7 ± 2.5%
COc1ccc(CNc2ccc3c(c2)S(=O)(=O)C=C3)cc1			male C57BL/6 mice, blood	intraperitoneal, 10 mg/kg, day 8, group average		mean corpuscular haemoglobin concentration	290 g/L
Cc1ccc(N(C)C2(C)CN(C)C2)cc1C(=O)N[C@H](C)c1cc(-c2cnn(C)c2)nc2ccccc12	Vero E6			250 µM		viability	0.18% and 0% and 0.541%
CC(C(=O)O)n1nc(Cn2cc3cc(OCC[18F])c(Cl)cc3n2)c2ccccc2c1=O (racemic)		HPLC	nonhuman primate, plasma	60 min post-injection	reference: plasma radioactivity	hydrophilic radiometabolite	12%
CSCC[C@H](NC(=O)CNC(=O)[C@H](CCCCN)NC(=O)[C@H](CC(C)C)NC(=O)[C@@H]1CCCN1C(=O)[C@H](CO)NC(=O)[C@H](Cc1c[nH]cn1)NC(=O)[C@H](Cc1c[nH]c2ccccc12)NC(=O)[C@H](CCCNC(=N)N)NC(=O)[C@H](CC(C)C)NC(=O)[C@H](CCCNC(=N)N)NC(=O)[C@H](Cc1c[nH]c2ccccc12)NC(=O)[C@H](CS)NC(=O)CCCCCNC(=O)CN1CCN(CC(=O)O)CCN(CC(=O)O)CCN(CC(=O)O)CC1)C(=O)O [copper-64 labelled]		ex vivo biodistribution	C57BL/6J mice bearing B16-F10 tumours, thymus	intravenous, 1.85 MBq, 0.5 h		tissue uptake	2.46 %ID/g
CC(=O)c1c(C)c2cnc(Nc3ccc(N4CCNCC4)cn3)nc2n(C2CCCC2)c1=O			C57BL/6 mice, blood	25 mg/kg, P25, dosed P10 to P24		AST activity	86 ± 5 U/liter
O=C1NC2(CC2)COc2ncc(F)cc2[C@H]2COCCN2c2ccn3ncc1c3n2			Sprague-Dawley rat, female, heart	oral, 20 mg/kg/day, 4 weeks, end of treatment		organ-to-body weight ratio	0.431 ± 0.047%
CCN(CCCCOc1ccc(CCC(=O)N2CCC(Cc3ccccc3)CC2)cc1OC)Cc1ccccc1			Sprague-Dawley rats, both sexes, faeces	oral gavage, 25 mg/kg, 0 to 48 h		excreted amount	87500 ± 3240 ng
CCc1nnc(-c2c(OC)cc(-c3cnc4cc(-c5cnn(C)c5)ccn34)cc2OC)o1		metabolic stability	rat, liver microsomes			half-life	> 2.48 h
COC(=O)[C@@H](NC(=O)c1nn(Cc2ccc(F)cc2)c2cc(OCCCCNC(=N)N)ccc12)C(C)(C)C			mouse	intraperitoneal	reference: compound over FUB, lower brain exposure	Kp,uu brain ratio	> 2400 fold
CC(CCC(=O)NCC(=O)O)C1CCC2C3C(O)CC4CC(OC5OC(C(=O)O)C(O)C(O)C5O)CCC4(C)C3CCC12C (stereo not drawn)		refers to: glucuronide to parent ratio	women, plasma	dose not given	reference: T/C over T/T	ratio of metabolic ratios	1.96
CSCC[C@H](N)C(=O)N[C@@H](C)C(=O)N[C@@H](CCCNC(=N)N)C(=O)N[C@@H](CCCNC(=N)N)C(=O)N[C@@H](CC(=O)O)C(=O)N[C@@H](CCCCN)C(=O)N[C@H](C(=O)N[C@@H](CC(=O)O)C(=O)N[C@@H](Cc1ccccc1)C(=O)N[C@@H](C)C(=O)N[C@@H](CCCNC(=N)N)C(=O)N[C@@H](CCCNC(=N)N)C(=O)N[C@@H](CCCNC(=N)N)C(=O)N[C@@H](CCCNC(=N)N)C(=O)NCCCCCC(=O)NCCCCC(NC(=O)CCCCCNC(=O)[C@H](CCCNC(=N)N)NC(=O)[C@H](CCCNC(=N)N)NC(=O)[C@H](CCCNC(=N)N)NC(=O)[C@H](CCCNC(=N)N)NC(=O)[C@H](C)NC(=O)[C@H](Cc1ccccc1)NC(=O)[C@H](CC(=O)O)NC(=O)[C@@H](NC(=O)[C@H](CCCCN)NC(=O)[C@H](CC(=O)O)NC(=O)[C@H](CCCNC(=N)N)NC(=O)[C@H](CCCNC(=N)N)NC(=O)[C@H](C)NC(=O)[C@@H](N)CCSC)[C@@H](C)O)C(=O)NCCCCC(NC(=O)C(CCCCNC(=O)CCCCCNC(=O)[C@H](CCCNC(=N)N)NC(=O)[C@H](CCCNC(=N)N)NC(=O)[C@H](CCCNC(=N)N)NC(=O)[C@H](CCCNC(=N)N)NC(=O)[C@H](C)NC(=O)[C@H](Cc1ccccc1)NC(=O)[C@H](CC(=O)O)NC(=O)[C@@H](NC(=O)[C@H](CCCCN)NC(=O)[C@H](CC(=O)O)NC(=O)[C@H](CCCNC(=N)N)NC(=O)[C@H](CCCNC(=N)N)NC(=O)[C@H](C)NC(=O)[C@@H](N)CCSC)[C@@H](C)O)NC(=O)CCCCCNC(=O)[C@H](CCCNC(=N)N)NC(=O)[C@H](CCCNC(=N)N)NC(=O)[C@H](CCCNC(=N)N)NC(=O)[C@H](CCCNC(=N)N)NC(=O)[C@H](C)NC(=O)[C@H](Cc1ccccc1)NC(=O)[C@H](CC(=O)O)NC(=O)[C@@H](NC(=O)[C@H](CCCCN)NC(=O)[C@H](CC(=O)O)NC(=O)[C@H](CCCNC(=N)N)NC(=O)[C@H](CCCNC(=N)N)NC(=O)[C@H](C)NC(=O)[C@@H](N)CCSC)[C@@H](C)O)C(N)=O)[C@@H](C)O (stereo partly drawn)			C57BL/6 mouse female, brain	dose not given, 6 h	reference: total	mean tissue distribution	0.28%
CC[C@H](C)[C@H](NC(=O)CN)C(=O)N[C@@H](CCCNC(=N)N)C(=O)N[C@@H](CCCCN)C(=O)N[C@@H](Cc1c[nH]c2ccccc12)C(=O)N[C@@H](Cc1ccccc1)C(=O)N[C@@H](CCCCN)C(=O)N[C@@H](CCCCN)C(=O)N[C@@H](C)C(=O)N[C@@H](C)C(=O)N[C@@H](Cc1c[nH]cn1)C(=O)N[C@H](C(=O)NCC(=O)N[C@@H](CCCCN)C(=O)N[C@@H](CCCCN)C(=O)N[C@H](C(=O)NCC(=O)N[C@@H](CCCCN)C(=O)N[C@H](C(=O)N[C@@H](C)C(=O)N[C@@H](CC(C)C)C(=O)N[C@@H](CC(N)=O)C(=O)N[C@@H](C)C(=O)N[C@@H](Cc1ccc(O)cc1)C(=O)N[C@@H](CC(C)C)C(N)=O)C(C)C)C(C)C)C(C)C			zebrafish embryos 4 hpf, E3 medium	1 h		acute toxic concentration	25 µM
CC[C@H](C)[C@H](NC(=O)[C@H](CCCCN)NC(=O)CNC(=O)[C@H](CC(C)C)NC(=O)[C@H](Cc1ccccc1)NC(=O)[C@H](CCCCN)NC(=O)[C@H](CO)NC(=O)[C@H](Cc1ccccc1)NC(=O)[C@H](Cc1c[nH]c2ccccc12)NC(=O)[C@H](CCC(N)=O)NC(=O)[C@@H](NC(=O)[C@H](Cc1ccccc1)NC(=O)CCCCCNC(=O)CN1CCN(CC(=O)O)CCN(CC(=O)O)CCN(CC(=O)O)CC1)C(C)C)C(=O)N[C@@H](CCC(=O)O)C(=O)N1CCC[C@H]1C(=O)N[C@@H](CC(=O)O)C(=O)N[C@H](C(=O)N[C@@H](CO)C(=O)N[C@@H](CCC(N)=O)C(=O)N[C@H](C(=O)N[C@@H](CCC(N)=O)C(=O)N[C@@H](CC(=O)O)C(=O)N1CCC[C@H]1C(=O)N[C@@H](CC(N)=O)C(=O)N[C@@H](CC(=O)O)C(=O)N[C@@H](CCC(N)=O)C(=O)N[C@@H](Cc1ccc(O)cc1)C(=O)N[C@@H](CCC(=O)O)C(=O)N1CCC[C@H]1C(=O)N[C@@H](Cc1ccccc1)C(=O)O)C(C)C)C(C)C [copper-64 labelled]		dynamic PET	mouse both sexes, CT26 tumour, untreated, tumour	intravenous, 100 µCi/mouse, 210 s		SUVmean	1.02 SUV
COc1cnc2cccc(N3CCc4c(cc(Cn5ccnc5)cc4-c4cn(C)nc4C(F)(F)F)C3=O)c2c1			BALB/c nude mice, MV4-11 xenograft	intraperitoneal, 100 mg/kg, day 10		body weight	22.2 g and 25.3 g and 22.3 g and 23.2 g and 25.1 g
CC(C)C[C@H](NC(=O)[C@H](Cc1ccccc1)NC(=O)CNC(=O)CNC(=O)[C@@H](N)Cc1ccc(O)cc1)C(=O)N[C@@H](CSCB(O)O)C(N)=O		RP-HPLC	PBS	concentration not given, 24 h, pH 7.4, together with: ascorbic acid 100 µM		peptide remaining intact	57%
N=C(N)NCCC[C@H](NC(=O)[C@H](CCCNC(=N)N)NC(=O)[C@H](CCCNC(=N)N)NC(=O)[C@H](CCC(N)=O)NC(=O)[C@H](CCCNC(=N)N)NC(=O)[C@H](CCCNC(=N)N)NC(=O)[C@H](CCCCN)NC(=O)[C@H](CCCCN)NC(=O)[C@H](CCCNC(=N)N)NC(=O)CNC(=O)[C@H](Cc1ccc(O)cc1)NC(=O)[C@H](Cc1ccccc1)NC(=O)[C@H](Cc1ccccc1)NC(=O)[C@H](Cc1ccccc1)NC(=O)OCC1c2ccccc2-c2ccccc21)C(=O)O			C57BL/6 mice	intraperitoneal, 10 mg/kg, 12 h	direction not given	health score	5
CC(C)[C@@H]1NC(=O)CNC(=O)[C@H](CC(N)=O)NC(=O)[C@H](CCCNC(=N)N)NC(=O)[C@H](Cc2ccc(O)cc2)NC(=O)[C@H](C(C)C)NC(=O)[C@@H](NC(=O)[C@@H](NC(=O)[C@H](CC(N)=O)NC(=O)[C@H](Cc2c[nH]c3ccccc23)NC(=O)[C@H](C)NC(=O)[C@H](Cc2ccccc2)NC(=O)CNC(=O)[C@H](CCCCN)NC(=O)[C@H](Cc2ccccc2)NC(=O)[C@H](Cc2ccccc2)NC(=O)[C@H](CCCCN)NC(=O)OCC2c3ccccc3-c3ccccc32)C(C)C)CSSC[C@@H](C(=O)N[C@@H](Cc2c[nH]cn2)C(=O)N[C@@H](CCCNC(=N)N)C(=O)N[C@@H](CCCNC(=N)N)C(=O)N[C@@H](C)C(=O)N[C@@H](CC(N)=O)C(N)=O)NC(=O)[C@H](C(C)C)NC(=O)[C@H](CCCNC(=N)N)NC1=O			ICR mice, blood	intraperitoneal, 5 mg/kg, day 5		lymphocytes	74.5 ± 1.36%
CCCCCCCCCCCC(=O)N1CCN(C(=O)C2CCNCC2)CCN(C(=O)C2CCNCC2)CC1		dynamic light scattering	deionized water	128 µg/mL, 25 °C, intensity average		hydrodynamic diameter	179 nm
CN[C@@H](C)C(=O)N[C@H](C(=O)N1C[C@@H](NC(=O)CCCCOCc2cn(CCNC(=O)CN(Cc3cccs3)C(=O)[C@H](NS(=O)(=O)c3cc4ccc(O)nc4cc3Cl)c3ccccc3OC)nn2)C[C@H]1C(=O)N[C@@H]1CCCc2ccccc21)C1CCCCC1		fast-gradient HPLC		pH 7.4		logD	2.6

Some of these lines once more:
SMILES	target or system	test	test system	conditions	how to read	endpoint	value
Cc1ccc(N(C)C2(C)CN(C)C2)cc1C(=O)N[C@H](C)c1cc(-c2cnn(C)c2)nc2ccccc12	Vero E6			250 µM		viability	0.18% and 0% and 0.541%
CC(C(=O)O)n1nc(Cn2cc3cc(OCC[18F])c(Cl)cc3n2)c2ccccc2c1=O (racemic)		HPLC	nonhuman primate, plasma	60 min post-injection	reference: plasma radioactivity	hydrophilic radiometabolite	12%
